Published values collected from several papers.
Each line is one published result; not all experiments were run side by side. Several values in a cell are separate wells, animals, samples, runs or records.
Cell line: OVCAR-5

Cc1cc(-c2ccccc2)n(-c2nc(-c3ccc(Cl)cc3)c3c(NC(=O)c4ccccc4)nnc-3[nH]2)n1
cell growth (SRB; 10 µM, NCI60 single-dose screen; baseline: untreated): 99.7%

O=C1NC(=NCc2cccs2)S/C1=C\c1ccc2ncccc2c1
IC50 (MTS; NCI60 panel): > 10 µM

Cc1cc(=O)[nH]n1-c1nc(-c2ccc(Cl)cc2)c2c(NC(=O)c3ccccc3)nnc-2[nH]1
cell growth (SRB; 10 µM, NCI60 single-dose screen; baseline: untreated): 98.3%

CCCCN1CCN(c2ccc3nc(-c4ccc5nc(-c6cc(OC)ccc6OC)[nH]c5c4)[nH]c3c2)CC1
growth percent (SRB; 10 µM, 48 h): 117%

Cn1cncc1C1=CN(c2ncnc3[nH]cnc23)CCS1
GI50 (ovarian cancer): 46.8 µM

CC(=O)O[C@H]1C(=O)[C@@]2(C)[C@H]([C@H](OC(=O)c3ccccc3)[C@]3(O)C[C@H](OC(=O)[C@H](O)[C@@H](NC(=O)c4ccccc4)c4ccccc4)C(C)=C1C3(C)C)[C@]1(OC(C)=O)CO[C@@H]1C[C@@H]2O
TGI (sulforhodamine B; Ovarian cancer; NCI60 screen): 0.79 µM

Cc1cc(C)n(C(=S)[S][Au][PH](CCCCCC[PH]([Au][S]C(=S)n2nc(C)cc2C)(c2ccccc2)c2ccccc2)(c2ccccc2)c2ccccc2)n1
log10 TGI (cell growth, NCI-60 screen; ovarian cancer): -5.17

C#C[C@@]1(O)[C@@H](CO)O[C@@H](n2cc(F)c3c(N)ncnc32)[C@@H]1O
TGI (SRB; NCI-60 screen): > 100 µM

O=C(Nc1nnc2[nH]c(=S)[nH]c(-c3ccc(Cl)cc3)c1-2)c1ccccc1
cell growth (SRB; 10 µM, NCI60 single-dose screen; baseline: untreated): 108%

CN1CCN(c2ccc3[nH]c(-c4ccc5[nH]c(-c6ccc(C(F)(F)F)cc6)nc5c4)nc3c2)CC1
growth percent (SRB; 10 µM, 48 h): 110%

C#C[C@@]1(O)[C@@H](CO)O[C@@H](n2ccc3c(N)ncnc32)[C@@H]1O
TGI (SRB; NCI-60 screen): 8.54 µM

Cc1cc(C)n(-c2nc(-c3ccc(Cl)cc3)c3c(NC(=O)c4ccccc4)nnc-3[nH]2)n1
cell growth (SRB; 10 µM, NCI60 single-dose screen; baseline: untreated): 120%

CCCN1CCN(c2ccc3nc(-c4ccc5nc(-c6cc(OC)ccc6OC)[nH]c5c4)[nH]c3c2)CC1
growth percent (SRB; 10 µM, 48 h): 113%

CCOC(=O)CSc1nc(-c2ccc(Cl)cc2)c2c(NC(=O)c3ccccc3)nnc-2[nH]1
cell growth (SRB; 10 µM, NCI60 single-dose screen; baseline: untreated): 101%

CCCCN1CCN(c2ccc3[nH]c(-c4ccc5[nH]c(-c6cc(OC)c(OC)c(OC)c6)nc5c4)nc3c2)CC1
growth percent (SRB; 10 µM, 48 h): 117%

C#C[C@@]1(O)[C@@H](CO)O[C@@H](n2cc(Br)c3c(N)ncnc32)[C@@H]1O
TGI (SRB; NCI-60 screen): > 100 µM and 56.7 µM

CCCCN1CCN(c2ccc3[nH]c(-c4ccc5[nH]c(-c6ccc(OCC)cc6)nc5c4)nc3c2)CC1
growth percent (SRB; 10 µM, 48 h): 135%

CCCCS(=N)(=O)CCC(N)C(=O)O (centres unmarked)
remaining GSH (LC-ESI-MS/MS, item: glutathione; 200 µM, 12 h; baseline: untreated): 0.4%

CCCCN1CCN(c2ccc3[nH]c(-c4ccc5[nH]c(-c6ccc(OCC)c(OCC)c6)nc5c4)nc3c2)CC1
growth percent (SRB; 10 µM, 48 h): 37.7%

COC(=O)/C=C1\C(=O)C=C2C3CC4CC(CCC4(C)N21)C3(C)NC(C)=O (centres unmarked)
IC50 (cell growth; NCI screen): 18.8 µM

A few entries again:
CN1CCN(c2ccc3[nH]c(-c4ccc5[nH]c(-c6ccc(C(F)(F)F)cc6)nc5c4)nc3c2)CC1
growth percent (SRB; 10 µM, 48 h): 110%
